Assay results of several laboratories.
Protocols differ between the studies behind these lines. “And” joins repeats or separate records; there may be more than shown. ± gives the spread as reported.
Target: Cytochrome P450 3A4 (CYP3A4, Homo sapiens, UniProt P08684)
Chain of UniProt P08684 (whole entry, looked up): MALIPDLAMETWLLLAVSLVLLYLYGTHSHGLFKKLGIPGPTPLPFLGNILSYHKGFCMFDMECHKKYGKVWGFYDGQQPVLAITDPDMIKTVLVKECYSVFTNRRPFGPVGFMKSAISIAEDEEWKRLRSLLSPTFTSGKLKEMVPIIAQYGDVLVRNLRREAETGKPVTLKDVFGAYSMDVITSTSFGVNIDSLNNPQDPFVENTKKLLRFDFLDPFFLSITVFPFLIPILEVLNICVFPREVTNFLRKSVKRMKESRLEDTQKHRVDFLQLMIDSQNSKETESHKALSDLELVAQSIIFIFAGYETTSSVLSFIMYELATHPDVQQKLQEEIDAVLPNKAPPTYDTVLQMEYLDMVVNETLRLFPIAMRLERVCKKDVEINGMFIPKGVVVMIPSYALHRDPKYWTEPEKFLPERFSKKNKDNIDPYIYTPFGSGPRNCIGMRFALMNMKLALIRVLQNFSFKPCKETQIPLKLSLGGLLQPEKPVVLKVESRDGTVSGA

SMILES	assay	test system	setting	how to read	endpoint	result
O=C(NC(CSC(Cc1ccccc1)C(=O)NCCCc1cccnc1)Cc1ccc(-c2ccccc2)cc1)c1cccnc1 (centres unmarked)	enzyme activity, inhibitor				IC50	0.62 µM
Cc1ccc2nc(C)c(C(=O)NCc3ccc(C(F)(F)F)cc3)n2c1	inhibitor				IC50	13 µM and 12.5 µM
CC(C)(O)c1ccccc1CC[C@H](c1cccc(/C=C/c2ccc3ccc(Cl)cc3n2)c1)[S+]([O-])CC1(CC(=O)O)CC1 (some centres unmarked)	inhibitor		2 µM, pH 7.4		inhibition	< 0%
CC(=O)OC1(C(C)=O)CCC2C3C=C(CO)C4=CC(=O)CCC4(C)C3CCC21C (centres unmarked)	substrate	recombinant enzyme	62 µM, 25 min		formation rate	9.6 ± 0.3 pmol/min/pmol P450
CC[C@@H]1CN2CCc3c([nH]c4cccc(OC)c34)[C@@H]2C[C@@H]1/C(=C\OC)C(=O)OC	recombinant enzyme metabolism		2 µM, 60 min		remaining compound	2%
COc1ccc(F)cc1S(=O)(=O)Nc1cnc2c(c1)C(=O)NCCO2	inhibitor	human liver microsomes	together with: testosterone		IC50	> 100 µM
O=C(NC(CSC(Cc1ccccc1)C(=O)NCCCc1cccnc1)Cc1c[nH]c2ccccc12)c1cccnc1 (centres unmarked)	binding, absorbance		pH 7.4		Kd	0.032 µM and 0.032 to 0.037 µM
C[N+]1(CC(=O)OC2CCCCCCCCCCC2)CCCCC1	enzyme activity, inhibitor		together with: midazolam		IC50	3.28 µM
CC(c1ccc(Br)cc1)N1CCCC(n2c(=O)[nH]c3cc(Cl)c(Cl)cc32)CC1 (centres unmarked)			10 µM, 10 (unit not given)		inhibition	11%
Cc1ccc(N2CC3CCC(C2)N3C)cc1C(=O)N[C@H](C)c1cc(-c2cnn(C)c2)nc2ccccc12	enzyme activity				IC50	> 50 µM
CNC(=O)Oc1cc(C)c(S(C)(=O)=O)c(C)c1	inhibitor		10 µM, pH 7.4		inhibition	7.7%
CC(C)c1ccc(Cn2ccc([C@H](C)[C@](O)(Cn3cnnn3)c3ccc(F)cc3F)n2)cc1		Candida albicans, SC5314, human liver microsomes	together with: midazolam	relative to: IC50 CYP3A4 over MIC	selectivity ratio	> 1900
CNC(=O)Oc1cc(C)c([S+](C)[O-])c(C)c1 (centres unmarked)	inhibitor		2 µM, pH 7.4		inhibition	5.73%
COc1ccc2cc(NC(=O)c3cc(-c4ccccn4)nc4ccccc34)ccc2c1	substrate, item: naphthalene-hydroxylated metabolite M1	baculosomes			kcat	0.03 s⁻¹
C=C(C)[C@@H]1CCC(CO)=C[C@H]1c1c(O)cc(CCCCC)cc1O		human	750 mg single dose		half-life	19.4 h
Cc1ccc(OCC(=O)N(Cc2cccs2)c2ccn[nH]2)cc1	enzyme activity, inhibitor	human, liver microsomes	10 µM, midazolam probe		inhibition	57%
O=C1Cc2cc(CCN3CCN(C4=NS(=O)(=O)c5ccccc54)CC3)c(Cl)cc2N1		human liver microsomes	2 µM, pH 7.4, together with: midazolam		inhibition	< 0%
